{"data": "Measured values gathered from unrelated publications", "note": "Compare with care: the assays were run in different laboratories. Values joined by “and” are separate records of one study, mostly repeats; a detail may differ. ± gives the spread as reported."}
{"Compound": "CC[C@H](C)[C@H](NC(=O)[C@H](Cc1ccccc1)NC(=O)[C@H](CCC(=O)O)NC(=O)[C@H](CCCCN)NC(=O)[C@H](C)NC(=O)[C@H](C)NC(=O)[C@H](CCC(N)=O)NC(=O)CNC(=O)[C@H](CCC(=O)O)NC(=O)[C@H](CC(C)C)NC(=O)[C@H](Cc1ccc(O)cc1)NC(=O)[C@H](CO)NC(=O)[C@H](CO)NC(=O)[C@@H](NC(=O)[C@H](CC(=O)O)NC(=O)[C@H](CO)NC(=O)[C@@H](NC(=O)[C@H](Cc1ccccc1)NC(=O)[C@@H](NC(=O)CNC(=O)[C@H](CCC(=O)O)NC(=O)CNC(=O)[C@@H](N)Cc1c[nH]cn1)[C@@H](C)O)[C@@H](C)O)C(C)C)C(=O)N[C@@H](C)C(=O)N[C@@H](Cc1c[nH]c2ccccc12)C(=O)N[C@@H](CC(C)C)C(=O)N[C@H](C(=O)N[C@@H](CCCCN)C(=O)NCC(=O)N[C@@H](CCCNC(=N)N)C(=O)N[C@@H](CSC1CC(=O)N(CCC(=O)NCCCCC(NC(=O)CCN2C(=O)CC(SC[C@H](NC(=O)[C@H](CCCNC(=N)N)NC(=O)CNC(=O)[C@H](CCCCN)NC(=O)[C@@H](NC(=O)[C@H](CC(C)C)NC(=O)[C@H](Cc3c[nH]c4ccccc34)NC(=O)[C@H](C)NC(=O)[C@@H](NC(=O)[C@H](Cc3ccccc3)NC(=O)[C@H](CCC(=O)O)NC(=O)[C@H](CCCCN)NC(=O)[C@H](C)NC(=O)[C@H](C)NC(=O)[C@H](CCC(N)=O)NC(=O)CNC(=O)[C@H](CCC(=O)O)NC(=O)[C@H](CC(C)C)NC(=O)[C@H](Cc3ccc(O)cc3)NC(=O)[C@H](CO)NC(=O)[C@H](CO)NC(=O)[C@@H](NC(=O)[C@H](CC(=O)O)NC(=O)[C@H](CO)NC(=O)[C@@H](NC(=O)[C@H](Cc3ccccc3)NC(=O)[C@@H](NC(=O)CNC(=O)[C@H](CCC(=O)O)NC(=O)CNC(=O)[C@@H](N)Cc3c[nH]cn3)[C@@H](C)O)[C@@H](C)O)C(C)C)[C@@H](C)CC)C(C)C)C(N)=O)C2=O)C(=O)NCCCCCCN)C1=O)C(N)=O)C(C)C (stereo partly drawn)", "test system": "Kunming mouse, plasma", "setting": "subcutaneous, 50 nmol/kg", "quantity": "MRT", "result": "2.6 ± 0.2 h"}
{"Compound": "C/C(=N\\OCCCN1CCCCC1)c1ccc(C(F)(F)F)cc1", "test system": "C57BL/6 mouse, brain", "setting": "intravenous, 5 mg/kg, 4 h", "quantity": "brain concentration", "result": "1280 ± 301 ng/g"}
{"Compound": "O=C1NC2(CC2)COc2ncc(F)cc2[C@H]2COCCN2c2ccn3ncc1c3n2", "test system": "Sprague-Dawley rat, male, testes", "setting": "oral, 5 mg/kg/day, 4 weeks dosing, end of recovery", "quantity": "organ-to-body weight ratio", "result": "0.645 ± 0.05%"}
{"Compound": "CCc1nn(C)c2nc(-c3ccc(C(=O)O)cc3)nc(NCc3ccccc3)c12", "test system": "NSG mice", "setting": "dose not given, day 10 of treatment", "quantity": "body weight", "result": "23 g and 24 g and 22.2 g and 23.5 g"}
{"Compound": "CC(C)C[C@H](NC(=O)CNC(=O)[C@H](CCC(N)=O)NC(=O)[C@H](CC(C)C)NC(=O)[C@H](CC(C)C)NC(=O)[C@H](CCCNC(=N)N)NC(=O)[C@H](CCC(N)=O)NC(=O)[C@H](CC(C)C)NC(=O)[C@H](CCCNC(=N)N)NC(=O)[C@H](C)NC(=O)CNC(=O)[C@H](CCC(=O)O)NC(=O)[C@H](CCCNC(=N)N)NC(=O)[C@H](CC(C)C)NC(=O)[C@H](CCCNC(=N)N)NC(=O)[C@H](CO)NC(=O)[C@H](CC(C)C)NC(=O)[C@H](CCC(=O)O)NC(=O)[C@H](CO)NC(=O)[C@@H](NC(=O)[C@H](Cc1ccccc1)NC(=O)[C@@H](NC(=O)CNC(=O)[C@H](CC(=O)O)NC(=O)C(C)(C)NC(=O)[C@@H](N)Cc1c[nH]cn1)[C@@H](C)O)[C@@H](C)O)C(=O)N[C@@H](CC(C)C)C(=O)N[C@@H](CCC(N)=O)C(=O)NCC(=O)N[C@@H](CC(C)C)C(=O)N[C@H](C(=O)NCC(=O)N[C@@H](CCCCNC(=O)COCCOCCNC(=O)COCCOCCNC(=O)CC[C@H](NC(=O)CCCCCCCCCCCCCCCCC(=O)O)C(=O)O)C(N)=O)C(C)C", "test system": "DIO C57BL/6J mice", "setting": "sc, 300 nmol/kg twice daily, 8 days", "scale": "baseline: vehicle", "quantity": "plasma amylase", "result": "no effect"}
{"Compound": "CC(=O)N[C@@H](CCCNC(=N)N)C(=O)N[C@@H](CCCCN)C(=O)N[C@@H](CCC(=O)N=S(c1ccc(Cl)cc1)c1ccccc1O)C(=O)N[C@H](C(=O)N[C@@H](Cc1ccc(O)cc1)C(N)=O)C(C)C (stereo partly drawn)", "test": "HPLC", "test system": "95% FBS in PBS", "setting": "0.5 mM, 6 h, pH 7.4, 37 °C", "quantity": "hydrolysis", "result": "6%"}
{"Compound": "CCCCCCCCCCCC(=O)C(C)C(=O)N1CCC[C@H]1C(=O)NC(C)(C)C(=O)NC(C)(C)C(=O)NC(C)(C)C(=O)N[C@](C)(CC)C(=O)NCCC(=O)N[C@@H](C)C(=O)N[C@](C)(CC)C(=O)N[C@@H](C)C(=O)N[C@@H](CC(C)C)C(=O)N[C@](C)(CC)C(=O)NCCC(=O)N[C@@H](C)C(=O)N[C@](C)(CC)C(=O)NCCC(=O)N[C@@H](C)C(=O)NC(C)(C)C(=O)NC(C)(C)C(=O)NC(C)(C)C(=O)N[C@@H](C)C(=O)N[C@@H](CC(=O)O)C(=O)O (stereo partly drawn)", "test": "LC-MS", "test system": "buffer with human neutrophil elastase", "setting": "40 µM, 720 min, pH 7.5, 37 °C", "scale": "baseline: 0 h", "quantity": "remaining intact peptide", "result": "53.3% and 46% and 57.6%"}
{"Compound": "CC(C)[C@@H]1NC(=O)CNC(=O)[C@H](CC(N)=O)NC(=O)[C@H](CCCNC(=N)N)NC(=O)[C@H](Cc2ccc(O)cc2)NC(=O)[C@H](C(C)C)NC(=O)[C@@H](NC(=O)[C@@H](NC(=O)[C@H](CC(N)=O)NC(=O)[C@H](Cc2c[nH]c3ccccc23)NC(=O)[C@H](C)NC(=O)[C@H](Cc2ccccc2)NC(=O)CNC(=O)[C@H](CCCCN)NC(=O)[C@H](Cc2ccccc2)NC(=O)[C@H](Cc2ccccc2)NC(=O)[C@H](CCCCN)NC(=O)OCC2c3ccccc3-c3ccccc32)C(C)C)CSSC[C@@H](C(=O)N[C@@H](Cc2c[nH]cn2)C(=O)N[C@@H](CCCNC(=N)N)C(=O)N[C@@H](CCCNC(=N)N)C(=O)N[C@@H](C)C(=O)N[C@@H](CC(N)=O)C(N)=O)NC(=O)[C@H](C(C)C)NC(=O)[C@H](CCCNC(=N)N)NC1=O", "test": "HPLC", "test system": "trypsin buffer", "setting": "4.00 h, 37 °C, together with: trypsin 1 % w/v", "quantity": "peptide remaining", "result": "49.6% and 42.8% and 39.8%"}
{"Compound": "CC[C@H](C)[C@H](NC(=O)[C@H](CCCCN)NC(=O)CNC(=O)[C@H](CC(C)C)NC(=O)[C@H](Cc1ccccc1)NC(=O)[C@H](CCCCN)NC(=O)[C@H](CO)NC(=O)[C@H](Cc1ccccc1)NC(=O)[C@H](Cc1c[nH]c2ccccc12)NC(=O)[C@H](CCC(N)=O)NC(=O)[C@@H](NC(=O)[C@H](Cc1ccccc1)NC(=O)CCCCCNC(=O)CN1CCN(CC(=O)O)CCN(CC(=O)O)CCN(CC(=O)O)CC1)C(C)C)C(=O)N[C@@H](CCC(=O)O)C(=O)N1CCC[C@H]1C(=O)N[C@@H](CC(=O)O)C(=O)N[C@H](C(=O)N[C@@H](CO)C(=O)N[C@@H](CCC(N)=O)C(=O)N[C@H](C(=O)N[C@@H](CCC(N)=O)C(=O)N[C@@H](CC(=O)O)C(=O)N1CCC[C@H]1C(=O)N[C@@H](CC(N)=O)C(=O)N[C@@H](CC(=O)O)C(=O)N[C@@H](CCC(N)=O)C(=O)N[C@@H](Cc1ccc(O)cc1)C(=O)N[C@@H](CCC(=O)O)C(=O)N1CCC[C@H]1C(=O)N[C@@H](Cc1ccccc1)C(=O)O)C(C)C)C(C)C [copper-64 labelled]", "test": "dynamic PET", "test system": "mouse both sexes, CT26 tumour, untreated, tumour", "setting": "intravenous, 100 µCi/mouse, 390 s", "quantity": "SUVmean", "result": "0.75 SUV"}
{"Compound": "CCN(CCCCOc1ccc(CCC(=O)N2CCC(Cc3ccccc3)CC2)cc1OC)Cc1ccccc1", "test system": "Sprague-Dawley rats, both sexes, urine", "setting": "oral gavage, 25 mg/kg, 6 to 12 h", "quantity": "excreted amount", "result": "961 ± 159 ng"}
{"Compound": "O=C(Nc1cccs1)c1cccnc1", "test system": "mouse", "setting": "intravenous, 5 mg/kg", "quantity": "brain to plasma AUC ratio", "result": 6}
{"Compound": "Cc1ccc(N2CCN(C)[C@H](C)C2)cc1C(=O)N[C@H](C)c1cc(-c2cnn(C)c2)nc2ccccc12", "target or system": "African green monkey cells", "setting": "62.5 µM", "quantity": "viability", "result": "68.9%"}
{"Compound": "CC(C)(CCCC/C=C/CCCCCC(C)(C)C(=O)O)C(=O)O", "test system": "ICR mice, both sexes", "setting": "oral, dose not given, 24 h", "quantity": "plasma concentration", "result": "524 ng/mL"}
{"Compound": "Cc1ccc(NC2(C)CN(C)C2)cc1C(=O)N[C@H](C)c1cc(-c2cnn(C)c2)nc2ccccc12", "target or system": "Vero E6", "setting": "250 µM", "quantity": "viability", "result": "0.342% and 0% and 0.171%"}
{"Compound": "CN1Cc2cc(Cl)ccc2-n2c(nnc2C2CCN(c3cccc([18F])n3)CC2)C1", "test system": "C57BL/6 mouse male, liver", "setting": "intravenous, 3.7 MBq, 30 min", "quantity": "tissue uptake", "result": "19.9 ± 0.62 %ID/g"}
